# Published values collected from several papers.
# Each line is one published result; not all experiments were run side by side. “And” joins repeats or separate records; there may be more than shown.
SMILES,organism,assay,system,conditions,scale,measurement,value
CC(C)[C@H](NC(=O)[C@H](CCCNC(=N)N)NC(=O)[C@H](Cc1c[nH]c2ccccc12)NC(=O)[C@H](CCCNC(=N)N)NC(=O)[C@H](Cc1c[nH]c2ccccc12)NC(=O)[C@H](Cc1c[nH]c2ccccc12)NC(=O)[C@H](Cc1c[nH]c2ccccc12)NC(=O)[C@H](CCCNC(=N)N)NC(=O)[C@H](Cc1c[nH]c2ccccc12)NC(=O)[C@H](CCCNC(=N)N)NC(=O)CN)C(N)=O,Candida albicans,broth microdilution,"CGMCC 2.209, RPMI 1640-MOPS","48 h, 30 °C, added: NH4Cl 6 µM",,MIC,8 µM
COC(=O)N[C@H](C(=O)N1CCC[C@H]1c1ncc(-c2ccc(-c3ccc(-c4cnc([C@@H]5CCCN5C(=O)[C@@H](NC(=O)OC)C(C)C)[nH]4)cc3)cc2)[nH]1)C(C)C,hepatitis C virus,HCV replicon,,"90% effect level, added: IFN-α, ratio 1:1",,combination index,0.58 and 0.77
Cc1c2c(nn1C)CSCc1cc(n(C)n1)CSc1cc(c3ccccc3c1)OCCCc1c(C(=O)O)n(C)c3c-2c(Cl)ccc13,Staphylococcus aureus,"label-free quantitative proteomics, refers to: SAOUHSC_02828 protein",SA113,concentration not given,reference: untreated control,fold change,9.25
C[N+]1=C2C=C(NCCc3ccc(O)cc3)C(=O)c3[nH]cc(c32)CC1,Saccharomyces cerevisiae,"cell growth, liquid culture",BY4741,"100 µM, 24 h",,inhibition,23.6%
OB(O)c1csc2ccccc12,Staphylococcus aureus,OD600,USA300 fphE::Tn transposon mutant,100 µM,reference: wild type,growth,52.3% and 50.9% and 57.3% and 43.9% and 62.9% and 59.8%
COc1cnc(OC)n2nc(NS(=O)(=O)c3c(OCC(F)F)cccc3C(F)(F)F)nc12,Arabidopsis thaliana,,"Col-0, seed germination, dark","200 µg/mL, 7 days, 22 °C",,stem length inhibition,100%
CS(=O)(=O)CCCn1c(Cn2c(=O)n(CC(F)(F)F)c3ccncc32)cc2cc(Cl)ccc21,respiratory syncytial virus,RT-qPCR,"hospitalized infants 1-24 months, nasal swab","oral, 8 mg/kg daily, day 28, cohort 6-24 months",reference: placebo,LS mean difference vs placebo,0.72 log10 copies/mL
O=c1c2ccccc2oc2ccc(I)cc12,Schistosoma mansoni,microscopic viability scoring,newly transformed schistosomula,"10 µM, 72 h, prescreen",,viability reduction,0%
C[C@]12CC[C@@H]3c4ccc(O)cc4CC[C@H]3[C@@H]1CC[C@@H]2O,Arabidopsis thaliana,"qRT-PCR, refers to: NCED3",,"1 µM, unit not given",reference: untreated,mRNA level,1.27
Nc1ncnc2c([C@@H]3N[C@H](CO)[C@@H](O)[C@H]3O)c[nH]c12,Rhinovirus A,viral replication,HRV2 HGP,9.5 µM,,inhibition,71.9%
Cn1c(=O)ccc2ccc(F)c(CCNC[C@H]3CN(c4cnc5c(n4)NC(=O)CO5)C(=O)O3)c21,Shigella spp.,,,,,MIC90,0.06 µg/mL
O=[N+]([O-])c1ccc(C2=[N+]([O-])c3ccccc3N3CCN=C23)cc1,Fusobacterium nucleatum,,,,,MIC90,≤ 0.06 µg/mL
O=C1C=CC2(C=C1)CNC(=O)C2(Cl)Cl,Schistosoma mansoni,microscopic viability scoring,newly transformed schistosomula,"10 µM, 72 h, prescreen",,viability reduction,20%
N=C(N)NCCC[C@H](NC(=O)CN)C(=O)N[C@@H](Cc1c[nH]c2ccccc12)C(=O)N[C@@H](CCCNC(=N)N)C(=O)N[C@@H](Cc1c[nH]c2ccccc12)C(=O)N[C@@H](Cc1c[nH]c2ccccc12)C(=O)N[C@@H](Cc1c[nH]c2ccccc12)C(=O)N[C@@H](CCCNC(=N)N)C(=O)N[C@@H](Cc1c[nH]c2ccccc12)C(=O)N[C@@H](CCCNC(=N)N)C(=O)N[C@@H](Cc1c[nH]c2ccccc12)C(N)=O,Candida albicans,broth microdilution,"14936, RPMI 1640-MOPS","48 h, 30 °C",,MIC,4 µM
CCCCCCCC(C)(C)c1cc(O)c2cc(Cc3ccccc3O)c(=O)oc2c1,Schistosoma mansoni,microscopic viability score,adult worms,10 µM,,viability reduction,0%
Nc1ncnc2c1ncn2[C@@H]1O[C@@H]2COP(=O)(O)O[C@H]3[C@@H](O)[C@H](n4cnc5c(=O)[nH]cnc54)O[C@@H]3COP(=O)(O)O[C@H]2[C@H]1O,West Nile virus,"RNA sequencing Reactome analysis, refers to: Collagen degradation (R-HSA-1442490)",HFF-1,"concentration not given, downregulated pathways, added: West Nile virus infection",reference: WNV-infected without compound,fold enrichment,6.63
C[C@H](CCC(=O)O)[C@H]1CC[C@H]2[C@@H]3C[C@H](O)[C@@H]4C[C@H](O)CC[C@]4(C)[C@H]3CC[C@]12C,Bovine alphaherpesvirus 1,viral replication,MDBK,,,IC50,490 nM
OC(c1c(C(F)(F)F)nn(-c2ncccn2)c1Cl)C(F)(F)F (centres unmarked),Schistosoma mansoni,microscopic viability scoring,newly transformed schistosomula,"10 µM, 72 h, prescreen",,viability reduction,17.3%
C[C@@H](O[C@H]1OCCN(Cc2n[nH]c(=O)[nH]2)[C@H]1c1ccc(F)cc1)c1cc(C(F)(F)F)cc(C(F)(F)F)c1,Human immunodeficiency virus 1,viral replication,"PBMC, subtype F isolate from Brazil, R5, NSI",,,IC50,19900 nM
CCCCCc1cc(OC)c2c(c1)OC(C)(C)CC2=O,Schistosoma mansoni,microscopic viability scoring,newly transformed schistosomula,"10 µM, 72 h, prescreen",,viability reduction,0%
CC[C@H](C)[C@H](NC(=O)[C@H](C)NC(=O)[C@H](CCCCN)NC(=O)[C@H](CC(C)C)NC(=O)[C@H](C)NC(=O)[C@@H](NC(=O)[C@H](Cc1c[nH]cn1)NC(=O)[C@H](CC(C)C)NC(=O)[C@@H](NC(=O)[C@@H](NC(=O)[C@H](CCCCN)NC(=O)[C@H](C)NC(=O)[C@H](C)NC(=O)[C@H](CO)NC(=O)[C@H](CCCCN)NC(=O)[C@H](Cc1ccccc1)NC(=O)[C@@H](NC(=O)[C@H](CCCCN)NC(=O)[C@H](CC(C)C)NC(=O)[C@H](Cc1ccccc1)NC(=O)[C@H](CO)NC(=O)[C@H](CCCCN)NC(=O)[C@H](Cc1c[nH]c2ccccc12)NC(=O)[C@H](CCCCN)NC(C)=O)[C@@H](C)O)[C@@H](C)O)C(C)C)[C@@H](C)O)C(=O)N[C@@H](CO)C(=O)N[C@@H](CO)C(N)=O,Pseudomonas aeruginosa,,ATCC 27853,,,MIC90,4 µg/mL
O=c1ccn([C@@H]2O[C@H](CO)[C@@H](O)[C@H]2O)c(=S)[nH]1,Dengue virus,viral replication,"BHK-21, DENV2",,,EC50,580 nM
C=C(CN(C(=O)c1c(C(F)F)nn(C)c1F)C1CC1)c1ccc(Cl)cc1Cl,Ustilaginoidea virens,,,1.56 mg/L,,colony diameter,5 mm
CCOC(=O)C1=C(CN2CCOCC2)NC(c2nccs2)=NC1c1ccc(F)cc1Br (centres unmarked),Hepatitis B virus,refers to: HBV pgRNA,chronic HBV infection patients,"120 mg/day, 28 days, added: ritonavir 100 mg/day",reference: baseline,maximum change in serum pgRNA,-1.28 log10 copies/mL
CC1(C)S[C@@H]2[C@H](NC(=O)[C@H](N)c3ccccc3)C(=O)N2[C@H]1C(=O)O,Escherichia coli,,ΔtolC JW5503-1,"200 µM, added: 30 µg/mL 2,2'-bipyridyl",,zone of inhibition,13.5 mm
C[C@@H]1C[C@H](O)[C@]2(O)O[C@@H]3C[C@@]4(C=O)[C@@H](CC[C@@H]5[C@@H]4CC[C@]4(C)[C@@H](C6=CC(=O)OC6)CC[C@]54O)C[C@H]3O[C@@H]2O1,Schistosoma mansoni,microscopic viability score,adult worms,"0.1 µM, 72 h",,viability effect,22.9%
COc1cc(NC(=O)Cn2ccc3cc(F)c(-c4cnn(C)c4)cc32)cc(OC)c1OC,Plasmodium falciparum,"parasite growth, flow cytometry",Dd2-B2 parent,72 h,,IC90,29.7 nM
O=C1C(=O)c2cc(NS(=O)(=O)c3ccc(OC(F)(F)F)cc3)ccc2-c2ccc(NS(=O)(=O)c3ccc(OC(F)(F)F)cc3)cc21,Schistosoma mansoni,microscopic viability scoring,newly transformed schistosomula,"10 µM, 72 h, prescreen",,viability reduction,100%
CN[C@H](CC(C)C)C(=O)N[C@H]1C(=O)N[C@@H](CC(N)=O)C(=O)N[C@H]2C(=O)N[C@H]3C(=O)N[C@H](C(=O)N[C@H](C(=O)O)c4cc(O)cc(O)c4-c4cc3ccc4O)[C@H](O)c3ccc(c(Cl)c3)Oc3cc2cc(c3O[C@@H]2O[C@H](CO)[C@@H](O)[C@H](O)[C@H]2O[C@H]2C[C@](C)(N)[C@H](O)[C@H](C)O2)Oc2ccc(cc2Cl)[C@H]1O,Staphylococcus aureus,,"CAAS-2019-19 clinical blaZ-resistant isolate, PBS",,,MBC,4 µg/mL
COc1ccc(C(c2nnnn2C(C)(C)C)N2CCc3ccccc3C2)cc1OC (centres unmarked),Schistosoma mansoni,microscopic viability scoring,newly transformed schistosomula,"10 µM, 72 h, prescreen",,viability reduction,0%
CC(C)C[C@H](NC(=O)[C@H](CCN)NC(=O)[C@H](CCN)NC(=O)[C@@H](Cc1ccccc1)NC(=O)[C@H](CC(C)C)NC(=O)[C@H](CCN)NC(=O)[C@H](CCN)NC(=O)[C@@H](CCN)NC(=O)CCSCCOC(=O)c1ccc(C(C)(C)C)cc1)C(N)=O,Acinetobacter calcoaceticus,BHI agar spot plating,,"24 h, 37 °C",,MBC,32 µM
Nc1ncnc2c1nnn2[C@@H]1C(F)=C(CO)[C@@H](O)[C@H]1O,Dengue virus,,BHK-D2-Rluc,,reference: CC50 over EC50,selectivity index,> 2.67
